Assay results from different studies.
Lines come from different studies, so protocols differ. Numbers after ± are the reported error.

Structure (SMILES) | target or system | assay | system | conditions | scale | endpoint | value
CC1(C)[C@H](NC(=O)/C(=N\OC2(C(=O)O)CC2)c2nsc(N)n2)C(=O)N1OS(=O)(=O)O | Salmonella enterica Typhi | agar dilution | susceptible |  |  | MIC | 0.5 µg/mL
CN[C@@H]1[C@H](O)[C@H](NC)[C@H]2O[C@]3(O)[C@H](O[C@@H]2[C@H]1O)O[C@H](C)C[C@H]3NC(=O)CNC(C)(C)C | Burkholderia cepacia | microbial growth, broth dilution | ATCC25416 |  |  | MIC | > 200 µg/mL
Cc1ccc2nc(C)c(C(=O)C(=O)NCc3ccccc3)n2c1 | Mycobacteroides chelonae | microbial growth |  | 72 h |  | MIC | > 128 µM
CC(C)(C)C(=O)OCOP(=O)(OCOC(=O)C(C)(C)C)C1CCCN(O)C1=O (centres unmarked) | CCRF-CEM |  |  |  |  | GI50 | 0.185 µM
Cc1ccc2nc(C)c(CC(=O)NCc3ccc(N(C)C)cc3)n2c1 | Mycobacteroides chelonae | microbial growth |  | 72 h |  | MIC | > 50 µM
CCCCCCCCCCCCCC(=O)N[C@H](CCN)C(=O)N[C@@H]1C(=O)N[C@@H](CCN)C(=O)N[C@@H](CC(C)C)C(=O)N[C@@H](CCN)C(=O)N[C@H](Cc2ccccc2)C(=O)N[C@@H](CC(C)C)C(=O)N[C@@H](CCN)C(=O)N[C@H](CCN)C(=O)N[C@@H](C(C)C)C(=O)N[C@@H](CC(=O)O)C(=O)O[C@@H]1C | Burkholderia cepacia |  | intrinsically colistin-resistant |  |  | MIC | 64 µg/mL
CN[C@@H]1[C@H](O)[C@H](NC)[C@H]2O[C@]3(O)[C@H](O[C@@H]2[C@H]1O)O[C@H](C)C[C@H]3NC(=O)Cc1ccc(F)cn1 | Mycolicibacterium fortuitum | microbial growth | ATCC6841 |  |  | MIC | 50 µg/mL
CC1(C)C(NC(=O)C(=NOC2(C(=O)O)CC2)c2csc(N)n2)C(=O)N1OS(=O)(=O)O (centres unmarked) | Salmonella enterica Typhi | agar dilution | susceptible |  |  | MIC | 0.06 µg/mL
Cc1ccc2nc(C)c(C(=O)NCc3ccccc3)n2c1 | Mycobacteroides chelonae | microbial growth |  | 72 h |  | MIC | 94.4 µM
C=CCO/N=C(\C(=O)N[C@@H]1C(=O)N(OS(=O)(=O)O)C1(C)C)c1csc(N)n1 | Salmonella enterica Typhi | agar dilution | susceptible |  |  | MIC | 0.25 µg/mL
COc1ccccc1-c1n[nH]c2nc(NC3CCN(C(=O)Cc4ccc(F)cc4F)CC3)ncc12 |  | bead binding, competition bead pull-down, measured: LINJ.06.1110 | Leishmania donovani axenic amastigote extract | 10 µM | relative to: vehicle | relative abundance | 1.24
Nc1ccccc1C(=O)OCC#CCOC(=O)c1ccccc1N | Lodderomyces parapsilosis | microbial growth, broth dilution | ATCC22019 |  |  | MIC | 2 µg/mL
Cc1ccc(CNC(=O)C(=O)c2c(C)nc3ccc(C)cn23)cc1 | Mycobacteroides chelonae | microbial growth |  | 72 h |  | MIC | > 128 µM
CN[C@@H]1[C@H](O)[C@H](NC)[C@H]2O[C@]3(O)[C@H](O[C@@H]2[C@H]1O)O[C@H](C)C[C@H]3NC(=O)Cc1ccccn1 | Burkholderia cepacia | microbial growth, broth dilution | ATCC25416 |  |  | MIC | > 200 µg/mL
O=C1NC2(CC2)COc2ncc(F)cc2[C@H]2COCCN2c2ccn3ncc1c3n2 |  |  | Sprague-Dawley rat, female, heart | oral, 10 mg/kg/day, 4 weeks dosing, end of recovery |  | organ-to-brain weight ratio | 57.2 ± 4.66%
C=CCO/N=C(\C(=O)N[C@@H]1C(=O)N(OS(=O)(=O)O)C1(C)C)c1nsc(N)n1 | Salmonella enterica Typhi | agar dilution | susceptible |  |  | MIC | 0.5 µg/mL
CN[C@@H]1[C@H](O)[C@H](NC)[C@H]2O[C@]3(O)[C@H](O[C@@H]2[C@H]1O)O[C@H](C)C[C@H]3NC(=O)Cc1cscn1 | Mycolicibacterium fortuitum | microbial growth | ATCC6841 |  |  | MIC | 50 µg/mL

Excerpt of the above:
Structure (SMILES) | target or system | assay | system | conditions | scale | endpoint | value
Cc1ccc(CNC(=O)C(=O)c2c(C)nc3ccc(C)cn23)cc1 | Mycobacteroides chelonae | microbial growth |  | 72 h |  | MIC | > 128 µM
